Assay results gathered from unrelated publications.
Numbered parts are unrelated; each lists some results of a single study. Changes are numbered by the printed parent chain.

Block 1
Target: CCND3, cyclin fold, Cln2 fusion (human)
Technique: yeast growth competition, sequencing
Medium: yeast
Setting: weak parent motif
Baseline: not given
Reading: higher = stronger binding
Endpoint: normalised enrichment score
Starting sequence: CDC6 docking peptide (human); TLKGRRLVFDNQL
Substitution = R6K; value = 0.0758
Substitution = L13E; value = 0.153
Substitution = Q12K; value = 0.0376

Block 2
Target: Interferon regulatory factor 5, full length, phosphomimetic (IRF5, Homo sapiens, UniProt Q13568-2, residues 1-514, K96S/S451D/S453D/S456D/S462D)
Technique: protein-binding microarray
Molecule type: double-stranded DNA, one strand shown
Medium: in vitro
Tested at: 250 nM
Setting: 60-bp whole probe
Added: salmon DNA 0.4 mg/ml
Baseline: random background probes
Reading: higher = stronger binding
Endpoint: log fluorescence
Shared flanks, not repeated: GCCTAGCAC … GTCTTGATTCGCTTGACGCTGCTG
Oligonucleotide = TTAGGTTTCGGTATGGGTTAGTGCTAG; value = 10.2 z-score
Oligonucleotide = TCACCACTCTTTCCTCACACTGTGCTA; value = 0.624 z-score
Oligonucleotide = TTAGGTCTCCTTATCGTTTAGTGCTAG; value = 0.568 z-score
Oligonucleotide = GACGGACTGGGGTATCCGGACGTGCTA; value = -0.712 z-score
Oligonucleotide = CACTCTCTGCTTGTGTCTGGGTGCTAG; value = 0.336 z-score

Block 3
Target: Histone acetyltransferase KAT6A, winged helix 1, GST fusion (KAT6A, Homo sapiens, UniProt Q92794, residues 1-85)
Technique: protein binding microarray
Molecule type: double-stranded DNA, one strand shown
Medium: in vitro
Tested at: not given
Setting: 8-mer, flanks averaged, mean of 2 arrays, mostly near background
Baseline: not given
Reading: higher = stronger binding
Endpoint: E-score
Residues (chain): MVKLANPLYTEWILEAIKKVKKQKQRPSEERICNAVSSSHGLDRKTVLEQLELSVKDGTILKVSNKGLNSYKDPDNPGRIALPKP
Oligonucleotide = TACGGCAA; value = 0.371
Oligonucleotide = AATTTCAC; value = -0.213
Oligonucleotide = GGACCGGA; value = 0.126
Oligonucleotide = ACTTATGA; value = -0.24
Oligonucleotide = ATGCTCGG; value = -0.0338

Single results of other studies
Molecule = PhoQ, residues 284 288 289 292 302 303 TNSAEL; target = PhoP, residues 12 14 15 18 19 SEGLL (Escherichia coli, UniProt P23836); assay = Sort-seq, item: YFP reporter; system = E. coli; conditions = PhoQ-PhoP variant library, added: 10 µM Mg2+; scale = baseline: high Mg2+ state, higher = stronger signaling; endpoint = fold induction; value = 11.3

A few entries again (block 3):
Oligonucleotide = TACGGCAA; value = 0.371
Oligonucleotide = AATTTCAC; value = -0.213
